Results of several laboratories.
Each numbered part is a random draw from the data of one study; scales do not carry over between parts. Values joined by “and” are separate records of one study, mostly repeats; a detail may differ.
Chain of UniProt P51956 (whole entry, looked up): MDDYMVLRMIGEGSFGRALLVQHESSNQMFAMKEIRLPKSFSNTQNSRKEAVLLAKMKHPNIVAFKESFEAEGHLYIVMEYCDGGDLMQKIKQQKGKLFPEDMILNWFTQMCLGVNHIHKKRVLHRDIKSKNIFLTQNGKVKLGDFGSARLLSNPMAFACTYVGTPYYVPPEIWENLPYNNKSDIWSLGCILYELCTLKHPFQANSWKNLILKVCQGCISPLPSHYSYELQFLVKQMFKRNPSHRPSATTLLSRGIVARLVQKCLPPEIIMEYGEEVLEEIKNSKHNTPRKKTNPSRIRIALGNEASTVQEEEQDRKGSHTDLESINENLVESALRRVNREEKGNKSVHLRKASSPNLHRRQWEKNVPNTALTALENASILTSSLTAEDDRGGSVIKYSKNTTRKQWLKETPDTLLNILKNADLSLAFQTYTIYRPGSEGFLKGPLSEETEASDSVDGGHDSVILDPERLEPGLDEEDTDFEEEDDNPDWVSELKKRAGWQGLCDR
Chain of UniProt Q16539 (whole entry, looked up): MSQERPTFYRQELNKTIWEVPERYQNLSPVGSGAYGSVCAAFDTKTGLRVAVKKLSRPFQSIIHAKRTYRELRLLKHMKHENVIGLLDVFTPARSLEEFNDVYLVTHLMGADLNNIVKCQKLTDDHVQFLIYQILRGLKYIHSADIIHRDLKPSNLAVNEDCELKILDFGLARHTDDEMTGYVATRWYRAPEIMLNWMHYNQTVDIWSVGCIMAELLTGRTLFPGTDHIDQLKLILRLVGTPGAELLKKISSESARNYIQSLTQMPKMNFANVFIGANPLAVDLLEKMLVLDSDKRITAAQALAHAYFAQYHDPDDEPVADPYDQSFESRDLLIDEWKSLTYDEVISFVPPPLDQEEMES
Chain of UniProt P32298 (whole entry, looked up): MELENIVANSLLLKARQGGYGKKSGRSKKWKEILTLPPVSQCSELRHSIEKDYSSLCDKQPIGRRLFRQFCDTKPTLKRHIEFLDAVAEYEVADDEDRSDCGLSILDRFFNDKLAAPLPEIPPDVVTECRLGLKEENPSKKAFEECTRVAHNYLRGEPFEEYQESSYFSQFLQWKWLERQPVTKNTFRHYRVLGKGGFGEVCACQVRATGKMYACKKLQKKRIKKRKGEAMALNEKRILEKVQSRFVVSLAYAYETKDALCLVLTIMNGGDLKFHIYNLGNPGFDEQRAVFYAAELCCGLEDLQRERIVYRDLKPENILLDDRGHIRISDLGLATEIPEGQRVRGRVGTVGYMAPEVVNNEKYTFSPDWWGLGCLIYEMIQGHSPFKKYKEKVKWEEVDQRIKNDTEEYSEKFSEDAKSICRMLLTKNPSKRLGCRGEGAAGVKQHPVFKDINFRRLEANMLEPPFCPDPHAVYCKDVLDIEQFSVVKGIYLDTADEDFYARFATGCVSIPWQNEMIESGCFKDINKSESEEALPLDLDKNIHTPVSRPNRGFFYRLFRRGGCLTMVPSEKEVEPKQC
Chain of UniProt Q86UE8 (whole entry, looked up): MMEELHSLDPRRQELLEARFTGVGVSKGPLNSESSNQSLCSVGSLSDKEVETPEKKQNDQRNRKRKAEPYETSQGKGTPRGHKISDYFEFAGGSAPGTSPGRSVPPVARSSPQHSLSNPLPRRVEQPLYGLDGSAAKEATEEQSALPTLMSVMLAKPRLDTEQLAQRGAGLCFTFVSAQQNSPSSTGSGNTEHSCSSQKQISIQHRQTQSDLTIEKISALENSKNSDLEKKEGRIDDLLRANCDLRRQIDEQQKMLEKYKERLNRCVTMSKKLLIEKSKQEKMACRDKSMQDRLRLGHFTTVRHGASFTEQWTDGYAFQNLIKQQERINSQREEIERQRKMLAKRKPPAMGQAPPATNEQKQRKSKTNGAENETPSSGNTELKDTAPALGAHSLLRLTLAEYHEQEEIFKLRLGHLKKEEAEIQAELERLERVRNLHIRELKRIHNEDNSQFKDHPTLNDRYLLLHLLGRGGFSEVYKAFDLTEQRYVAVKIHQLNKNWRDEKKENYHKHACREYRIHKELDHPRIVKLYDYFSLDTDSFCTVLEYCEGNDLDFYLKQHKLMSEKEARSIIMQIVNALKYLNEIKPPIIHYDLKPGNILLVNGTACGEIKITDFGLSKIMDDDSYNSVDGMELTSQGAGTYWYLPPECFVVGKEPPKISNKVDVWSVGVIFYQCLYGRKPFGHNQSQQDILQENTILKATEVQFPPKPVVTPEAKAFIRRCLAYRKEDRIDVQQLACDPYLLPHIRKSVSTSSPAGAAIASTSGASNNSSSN
Chain of UniProt Q16832 (whole entry, looked up): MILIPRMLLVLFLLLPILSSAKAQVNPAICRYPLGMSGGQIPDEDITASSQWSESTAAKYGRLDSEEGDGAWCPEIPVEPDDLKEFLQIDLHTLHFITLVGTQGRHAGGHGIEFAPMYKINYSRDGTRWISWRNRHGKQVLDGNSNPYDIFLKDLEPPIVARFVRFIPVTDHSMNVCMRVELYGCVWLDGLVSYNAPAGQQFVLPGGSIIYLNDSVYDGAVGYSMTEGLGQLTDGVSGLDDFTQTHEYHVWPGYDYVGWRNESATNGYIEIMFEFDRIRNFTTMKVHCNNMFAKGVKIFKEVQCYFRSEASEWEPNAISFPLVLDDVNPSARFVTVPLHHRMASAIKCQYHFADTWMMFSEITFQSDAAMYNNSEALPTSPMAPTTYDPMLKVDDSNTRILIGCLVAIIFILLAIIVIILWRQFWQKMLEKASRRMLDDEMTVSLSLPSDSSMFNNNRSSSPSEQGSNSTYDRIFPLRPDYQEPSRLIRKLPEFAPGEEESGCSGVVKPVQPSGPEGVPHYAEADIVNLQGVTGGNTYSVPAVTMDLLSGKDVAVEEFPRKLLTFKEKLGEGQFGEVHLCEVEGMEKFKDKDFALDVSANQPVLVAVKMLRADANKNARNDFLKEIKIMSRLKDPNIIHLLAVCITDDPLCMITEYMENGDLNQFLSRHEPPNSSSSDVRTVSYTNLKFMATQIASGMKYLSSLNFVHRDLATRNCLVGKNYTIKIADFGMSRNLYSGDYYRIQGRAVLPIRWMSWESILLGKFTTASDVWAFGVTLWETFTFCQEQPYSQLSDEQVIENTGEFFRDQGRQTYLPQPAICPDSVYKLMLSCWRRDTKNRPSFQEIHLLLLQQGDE

Study 1 — cell line: mouse MPNST tumor cells; method: high-content nuclear imaging; refers to: cell number; tested at: 10 µM; time: 12 h; notes: mean of 2 replicates; reference: plate mean; direction: higher = more cells; quantity: nuclei count
Cc1nnc2ccc(-c3cccc(C(F)(F)F)c3)nn12: 1.59 z-score
CC(=O)O[C@H]1C[C@@H]2CC[C@@H]3[C@H](CC[C@@]4(C)[C@H]3C[C@H]([N+]3(C)CCCCC3)[C@@H]4OC(C)=O)[C@@]2(C)C[C@@H]1[N+]1(C)CCCCC1: 0.492 z-score
O=C(N[C@H]1CN2CCC1CC2)c1ccc2c(c1)OCCO2: 1.18 z-score

Study 2 — effect on: enzyme activity; action: inhibitor; tested at: 0.5 µM; reference: control; quantity: remaining activity
SMILES: CN[C@@H]1C[C@H]2O[C@@](C)([C@@H]1OC)n1c3ccccc3c3c4c(c5c6ccccc6n2c5c31)C(=O)NC4
Mitogen-activated protein kinase 14 (MAPK14, Homo sapiens, UniProt Q16539): 93.7% and 101%
G protein-coupled receptor kinase 4 (GRK4, Homo sapiens, UniProt P32298): 20.5%
Discoidin domain-containing receptor 2 (DDR2, Homo sapiens, UniProt Q16832): 3.83%
Serine/threonine-protein kinase Nek3 (NEK3, Homo sapiens, UniProt P51956): 91.9% and 107%
Serine/threonine-protein kinase tousled-like 2 (TLK2, Homo sapiens, UniProt Q86UE8): 2.83%

Study 3 — organism: Plasmodium berghei; action: inhibitor; cells: Huh-7; strain: liver stage; tested at: 10 µM; time: 24 h; reference: untreated control; quantity: infection rate
NCC1(CC(=O)O)CCCCC1: 121%
Cl[C@H]1[C@H](Cl)[C@@H](Cl)[C@@H](Cl)[C@H](Cl)[C@H]1Cl: 88.8%
O=C1CC[C@@]2(O)[C@H]3Cc4ccc(O)c5c4[C@@]2(CCN3CC2CC2)[C@H]1O5: 118%
CNC(C)(C)Cc1ccccc1: 114%
CC(C)[N+](C)(CCC(C(N)=O)(c1ccccc1)c1ccccc1)C(C)C: 110%
Nc1ccncc1: 102%

Study 4 — target: His6 tag; method: AlphaScreen counter screen; tested at: concentration not given; quantity: inhibition
O=C1NC(=O)N(c2ccc(F)cc2)C(=O)C1=CNc1ccc2c(c1)OCO2: 3.35%
CN1C(=O)NC(=O)C(=NNc2ccc(Br)cc2)C1=O: -1.2%
COC(=O)c1ccc(NC=C2C(=O)NC(=O)N(c3ccccc3)C2=O)cc1: -3.35%
CN1C(=O)NC(=O)C(=Cc2ccc[nH]2)C1=O: -1.3%
COc1ccc(NC=C2C(=O)NC(=S)N(C)C2=O)cc1: 6.15%
